Measured values of several laboratories.
Lines come from different studies, so protocols differ. “And” joins repeats or separate records; there may be more than shown. ± gives the spread as reported.
Maoa: Amine oxidase [flavin-containing] A (Maoa, Rattus norvegicus, UniProt P21396)
Chain of UniProt P21396 (whole entry, looked up): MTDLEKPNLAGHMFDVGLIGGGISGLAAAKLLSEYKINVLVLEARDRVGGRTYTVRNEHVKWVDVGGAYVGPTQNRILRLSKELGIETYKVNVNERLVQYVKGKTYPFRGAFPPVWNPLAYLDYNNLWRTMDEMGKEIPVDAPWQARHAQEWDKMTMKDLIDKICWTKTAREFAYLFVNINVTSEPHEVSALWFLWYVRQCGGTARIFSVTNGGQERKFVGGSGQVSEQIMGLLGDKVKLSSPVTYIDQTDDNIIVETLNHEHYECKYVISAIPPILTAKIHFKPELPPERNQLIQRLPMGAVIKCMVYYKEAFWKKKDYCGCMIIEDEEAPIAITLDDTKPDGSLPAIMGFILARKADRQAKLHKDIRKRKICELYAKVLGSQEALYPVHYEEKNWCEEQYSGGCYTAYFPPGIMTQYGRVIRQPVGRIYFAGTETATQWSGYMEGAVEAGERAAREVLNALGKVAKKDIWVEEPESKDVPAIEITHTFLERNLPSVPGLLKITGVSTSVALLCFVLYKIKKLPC
HDAC10: Polyamine deacetylase HDAC10 (HDAC10, Homo sapiens, UniProt Q969S8)
Chain of UniProt Q969S8 (whole entry, looked up): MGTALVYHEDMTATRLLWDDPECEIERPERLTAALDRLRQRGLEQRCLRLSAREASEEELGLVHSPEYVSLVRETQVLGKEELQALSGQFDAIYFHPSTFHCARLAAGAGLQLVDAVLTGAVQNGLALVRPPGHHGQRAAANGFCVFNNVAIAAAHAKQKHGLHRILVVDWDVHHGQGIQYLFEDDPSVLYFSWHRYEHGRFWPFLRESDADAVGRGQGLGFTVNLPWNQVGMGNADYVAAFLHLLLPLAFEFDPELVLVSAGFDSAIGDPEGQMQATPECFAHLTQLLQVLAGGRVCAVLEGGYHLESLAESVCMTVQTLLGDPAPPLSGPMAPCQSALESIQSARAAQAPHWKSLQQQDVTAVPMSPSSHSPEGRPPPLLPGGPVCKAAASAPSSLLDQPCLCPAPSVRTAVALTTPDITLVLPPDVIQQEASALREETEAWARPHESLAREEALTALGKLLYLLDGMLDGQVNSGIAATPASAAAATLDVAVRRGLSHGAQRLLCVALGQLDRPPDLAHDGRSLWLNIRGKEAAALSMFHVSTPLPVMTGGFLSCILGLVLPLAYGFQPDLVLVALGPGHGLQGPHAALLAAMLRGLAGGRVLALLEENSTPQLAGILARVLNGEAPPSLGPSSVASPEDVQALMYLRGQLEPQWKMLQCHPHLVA
USP51 ZnF-UBD domain: Ubiquitin carboxyl-terminal hydrolase 51, ZnF-UBD domain (USP51, Homo sapiens, UniProt Q70EK9)
Chain of UniProt Q70EK9 (whole entry, looked up): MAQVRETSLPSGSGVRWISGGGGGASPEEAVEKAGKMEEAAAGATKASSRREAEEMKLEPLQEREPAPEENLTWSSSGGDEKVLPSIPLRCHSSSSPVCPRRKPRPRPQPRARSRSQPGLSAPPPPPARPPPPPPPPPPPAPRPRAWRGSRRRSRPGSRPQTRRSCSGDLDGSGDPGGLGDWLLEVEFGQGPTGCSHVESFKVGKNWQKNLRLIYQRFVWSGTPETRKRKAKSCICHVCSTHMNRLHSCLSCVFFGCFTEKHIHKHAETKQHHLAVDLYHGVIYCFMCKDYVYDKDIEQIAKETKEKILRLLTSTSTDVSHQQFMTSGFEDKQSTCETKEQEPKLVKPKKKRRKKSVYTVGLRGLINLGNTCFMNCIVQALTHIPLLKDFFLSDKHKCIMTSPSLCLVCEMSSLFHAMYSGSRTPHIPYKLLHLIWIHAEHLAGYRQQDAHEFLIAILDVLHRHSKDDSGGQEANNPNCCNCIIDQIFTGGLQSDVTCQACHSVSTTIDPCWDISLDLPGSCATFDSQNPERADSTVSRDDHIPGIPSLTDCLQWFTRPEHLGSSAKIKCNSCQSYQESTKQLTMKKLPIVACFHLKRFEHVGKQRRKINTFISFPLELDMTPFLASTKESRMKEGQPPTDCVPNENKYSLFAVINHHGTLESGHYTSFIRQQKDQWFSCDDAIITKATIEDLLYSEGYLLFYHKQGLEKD
NOD2 LRR domain: Nucleotide-binding oligomerization domain-containing protein 2, LRR domain (NOD2, Homo sapiens, UniProt Q9HC29)
Chain of UniProt Q9HC29 (whole entry, unmodified, looked up): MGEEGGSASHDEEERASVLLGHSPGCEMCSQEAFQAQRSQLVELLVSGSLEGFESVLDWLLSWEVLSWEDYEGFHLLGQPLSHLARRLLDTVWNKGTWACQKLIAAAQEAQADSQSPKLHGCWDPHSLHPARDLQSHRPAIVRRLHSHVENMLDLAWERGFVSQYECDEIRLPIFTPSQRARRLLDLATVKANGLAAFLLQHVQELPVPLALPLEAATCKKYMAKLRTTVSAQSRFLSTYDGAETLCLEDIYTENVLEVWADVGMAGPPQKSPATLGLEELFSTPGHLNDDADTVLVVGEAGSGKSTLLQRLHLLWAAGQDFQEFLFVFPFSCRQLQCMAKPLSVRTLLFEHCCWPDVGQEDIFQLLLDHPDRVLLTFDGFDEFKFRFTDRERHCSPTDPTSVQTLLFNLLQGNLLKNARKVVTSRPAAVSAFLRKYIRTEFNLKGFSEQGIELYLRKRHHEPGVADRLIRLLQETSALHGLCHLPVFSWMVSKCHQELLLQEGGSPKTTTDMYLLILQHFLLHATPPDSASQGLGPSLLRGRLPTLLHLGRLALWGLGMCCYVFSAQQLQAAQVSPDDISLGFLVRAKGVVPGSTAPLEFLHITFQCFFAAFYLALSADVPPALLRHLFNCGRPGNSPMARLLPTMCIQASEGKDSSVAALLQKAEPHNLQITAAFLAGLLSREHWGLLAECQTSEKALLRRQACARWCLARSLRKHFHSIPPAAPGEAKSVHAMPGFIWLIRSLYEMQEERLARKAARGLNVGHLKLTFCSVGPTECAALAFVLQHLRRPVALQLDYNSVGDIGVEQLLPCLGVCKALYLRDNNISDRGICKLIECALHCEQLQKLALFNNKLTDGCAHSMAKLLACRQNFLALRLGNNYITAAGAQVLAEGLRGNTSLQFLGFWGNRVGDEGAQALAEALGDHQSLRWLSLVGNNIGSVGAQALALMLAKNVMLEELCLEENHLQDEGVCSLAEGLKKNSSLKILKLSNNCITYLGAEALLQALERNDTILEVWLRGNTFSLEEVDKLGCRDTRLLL
GAP50: Glideosome-associated protein 50 (GAP50, Plasmodium falciparum, UniProt Q8I2X3)
Chain of UniProt Q8I2X3 (whole entry, looked up): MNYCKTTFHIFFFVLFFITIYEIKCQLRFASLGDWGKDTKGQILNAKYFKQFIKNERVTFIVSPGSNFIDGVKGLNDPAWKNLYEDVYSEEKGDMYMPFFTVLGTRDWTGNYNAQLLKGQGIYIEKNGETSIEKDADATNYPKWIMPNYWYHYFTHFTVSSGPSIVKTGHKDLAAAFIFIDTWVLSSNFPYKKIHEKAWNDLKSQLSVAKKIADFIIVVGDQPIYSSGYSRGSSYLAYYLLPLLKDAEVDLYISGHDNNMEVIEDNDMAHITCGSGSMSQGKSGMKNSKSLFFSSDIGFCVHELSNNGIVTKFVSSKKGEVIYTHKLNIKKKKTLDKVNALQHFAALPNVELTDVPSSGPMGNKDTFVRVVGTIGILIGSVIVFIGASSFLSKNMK
Chain of UniProt P12689 (1-746, looked up): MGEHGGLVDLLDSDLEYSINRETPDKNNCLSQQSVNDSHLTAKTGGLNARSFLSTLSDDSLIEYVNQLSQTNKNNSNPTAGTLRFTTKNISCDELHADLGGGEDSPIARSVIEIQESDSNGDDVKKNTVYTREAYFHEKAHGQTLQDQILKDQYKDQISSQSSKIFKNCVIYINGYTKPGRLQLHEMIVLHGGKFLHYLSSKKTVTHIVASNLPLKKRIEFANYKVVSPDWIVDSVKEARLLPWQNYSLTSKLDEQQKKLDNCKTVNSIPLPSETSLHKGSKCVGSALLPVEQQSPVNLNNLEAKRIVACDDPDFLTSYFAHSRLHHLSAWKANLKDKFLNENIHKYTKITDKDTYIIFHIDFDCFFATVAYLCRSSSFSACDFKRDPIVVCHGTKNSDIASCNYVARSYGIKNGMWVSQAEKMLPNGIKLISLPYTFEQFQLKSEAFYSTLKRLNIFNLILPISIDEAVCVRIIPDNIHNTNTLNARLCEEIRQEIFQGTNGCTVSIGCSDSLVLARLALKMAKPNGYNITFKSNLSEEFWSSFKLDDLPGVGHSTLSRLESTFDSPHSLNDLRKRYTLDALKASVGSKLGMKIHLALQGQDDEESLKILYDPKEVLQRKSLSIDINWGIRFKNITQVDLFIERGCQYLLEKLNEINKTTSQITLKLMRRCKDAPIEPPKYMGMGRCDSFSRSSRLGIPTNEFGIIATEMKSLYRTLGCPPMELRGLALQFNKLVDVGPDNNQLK
Chain of UniProt Q9QUI0 (whole entry, looked up): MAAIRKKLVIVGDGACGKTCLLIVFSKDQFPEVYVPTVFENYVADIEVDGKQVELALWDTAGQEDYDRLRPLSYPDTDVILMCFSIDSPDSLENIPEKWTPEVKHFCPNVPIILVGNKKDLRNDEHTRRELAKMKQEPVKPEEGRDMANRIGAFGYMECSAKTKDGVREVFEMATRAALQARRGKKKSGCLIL
Chain of UniProt P53341 (whole entry, looked up): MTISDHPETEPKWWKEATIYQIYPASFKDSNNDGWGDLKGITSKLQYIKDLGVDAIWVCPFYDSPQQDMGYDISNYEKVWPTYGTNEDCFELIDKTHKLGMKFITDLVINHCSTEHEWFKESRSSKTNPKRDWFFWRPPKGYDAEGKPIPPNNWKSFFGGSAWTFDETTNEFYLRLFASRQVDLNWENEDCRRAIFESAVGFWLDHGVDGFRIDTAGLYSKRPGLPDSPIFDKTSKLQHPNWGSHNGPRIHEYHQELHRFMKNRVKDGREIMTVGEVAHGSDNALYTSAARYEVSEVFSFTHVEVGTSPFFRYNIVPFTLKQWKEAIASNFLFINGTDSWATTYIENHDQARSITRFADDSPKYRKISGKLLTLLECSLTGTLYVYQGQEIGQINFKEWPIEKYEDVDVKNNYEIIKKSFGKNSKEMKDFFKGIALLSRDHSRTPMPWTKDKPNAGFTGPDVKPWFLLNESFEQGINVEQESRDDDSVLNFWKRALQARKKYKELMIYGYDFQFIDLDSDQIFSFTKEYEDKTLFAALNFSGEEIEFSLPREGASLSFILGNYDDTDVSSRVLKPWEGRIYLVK

Compound	target	assay	system	setting	Kd
COc1cccc(C=O)c1O	Aromatic O-demethylase, cytochrome P450 subunit (gcoA, Amycolatopsis sp., UniProt P0DPQ7)	binding, ferric spin-state titration	Amycolatopsis sp. ATCC 39116	ferric enzyme without reductase	28 ± 4 µM
COc1ccc(CN)cc1	Maoa	steady-state isotope effects	–	pH 7.5	58 µM
CCCC(CCC)C(=O)O	HDAC10	inhibitor, competition pulldown	SW620 and MV4-11 lysate	1 h	> 3020 µM
O=C(O)Cc1cc(-c2ccc(C(=O)O)s2)sc1-c1ccc(-c2sc(-c3ccc(C(=O)O)s3)cc2CC(=O)O)s1	Microtubule-associated protein tau, 0N4R isoform, aggregated (MAPT, Homo sapiens, UniProt P10636)	binding, fluorescence	10% sucrose tau fraction	–	30 µM
COc1ccc(N2CCN(Cc3cn4c(-c5ccc(Br)cc5)nnc4s3)CC2)cc1	His-SUMO-FSP1	binding, SPR steady-state	–	25 °C	0.319 µM
C[N+](C)(C)CC(=O)O	uncharacterized protein (Pelagibacter ubique, UniProt Q4FKZ8)	binding, competition isothermal titration calorimetry	Candidatus Pelagibacter ubique	with: glycine competitor	0.00196 ± 0.00023 µM
O=C(O)CCC1=Nc2cccc3cccc(c23)N1	USP51 ZnF-UBD domain	–	–	–	> 1000 µM
NCc1ccccc1	Maoa	binding, steady-state isotope effects	–	pH 7.5	460 µM
CC(C)(COP(=O)(O)OP(=O)(O)OC[C@H]1O[C@@H](n2cnc3c(N)ncnc32)[C@H](O)[C@@H]1OP(=O)(O)O)[C@@H](O)C(=O)NCCC(=O)NCCS	GNPNAT1 (Homo sapiens, UniProt Q96EK6)	competitor, competition MS pulldown	SW-620 cell lysate	with: photo-immobilized beads	26.3 µM
C[C@H](N)C(=O)N[C@H](CCC(=O)O)C(N)=O	NOD2 LRR domain	binding, SPR, immobilised ligand	–	LRR domain wild type	0.428 ± 0.049 µM
[H]/N=C(/N)NCC(=O)O	Sodium- and chloride-dependent taurine transporter (SLC6A6, Homo sapiens, UniProt P31641, L306A)	microscale thermophoresis	–	L306A mutant	no binding
NS(=O)(=O)c1ccccc1	Carbonic anhydrase 14 (CA14, Homo sapiens, UniProt Q9ULX7)	thermal shift	–	pH 7.0, 25 °C	3.33 µM
Cc1ccc(S(=O)(=O)Nc2ccc(CN3CCN(C(=O)c4cccc(C#N)c4)CC3)cc2)cc1	GAP50	binding, surface plasmon resonance	–	1:1 binding model	43.3 µM
CC(C)C[C@@H]1NC(=O)[C@H](C(C)C)NC(=O)CNC(=O)[C@H](CC(N)=O)NC(=O)[C@@H]2CCCN2C(=O)[C@H](Cc2ccc(O)cc2)NC(=O)[C@H](CCCNC(=N)N)NC(=O)[C@H](Cc2ccccc2)NC(=O)[C@@H](NC(=O)[C@H](CCCCN)NC(=O)[C@H](C)NC(=O)[C@H](CO)NC(=O)[C@H](C)NC(=O)[C@@H](N)Cc2ccc(O)cc2)CSSC[C@@H](C(=O)N[C@H](C(N)=O)[C@@H](C)O)NC(=O)[C@H](C)NC1=O	fucoidan	binding, isothermal titration calorimetry	–	pH 7.0, 25 °C	0.44 µM
Cn1cc(CNCC2CCN(c3ncc(C(=O)NO)cn3)CC2)c2ccccc21	HDAC10	inhibitor, competition pulldown	SW620 and MV4-11 lysate	1 h	0.0672 µM
CCN(CC)C1CCC(NC(=O)c2cc3[nH]ccc3cc2Cl)CC1 (stereo not drawn)	Nuclear receptor subfamily 4 group A member 2 (Homo sapiens, UniProt P43354)	isothermal titration calorimetry	–	25 °C	no binding
CC(C)C[C@H](N)C(=O)O	SAR11_1346 protein (Candidatus Pelagibacter sp.)	binding, competition isothermal titration calorimetry	–	with: serine 5 mM competitor	2.88e-05 µM and 2.23e-05 µM
O=C(O)Cc1cccc2cccnc12	USP51 ZnF-UBD domain	–	–	–	> 1000 µM
CC[C@H](C)[C@H](NC(=O)[C@H](CC(C)C)NC(=O)[C@H](Cc1ccc(OP(=O)(O)O)cc1)NC(=O)[C@H](CCC(=O)O)NC(=O)[C@H](CC(=O)O)NC(=O)[C@H](C)NC(=O)[C@H](CC(=O)O)NC(=O)[C@@H](NC(=O)[C@@H](NC(=O)[C@H](CC(=O)O)NC(=O)[C@H](CC(=O)O)NC(=O)[C@H](CCSC)NC(=O)c1ccc2c(c1)C(=O)OC21c2ccc(N(C)C)cc2Oc2cc(N(C)C)ccc21)C(C)C)C(C)C)C(=O)N1CCC[C@H]1C(=O)N[C@@H](CCC(N)=O)C(=O)N[C@@H](CCC(N)=O)C(=O)NCC(=O)N[C@@H](Cc1ccccc1)C(=O)N[C@@H](CC(=O)O)C(=O)O	Tyrosine-protein kinase ABL2, SH2 domain (ABL2, Homo sapiens, UniProt P42684)	binding	–	–	0.282 µM
CC(C)(C)NC(=O)[C@@H]1CN(Cc2cnc3occc3c2)CCN1C[C@@H](O)C[C@@H](Cc1ccccc1)C(=O)N[C@H]1c2ccccc2C[C@H]1O	GAP50	binding, surface plasmon resonance	–	1:1 binding model	0.123 µM
CCCN1CCN(c2cccc(-c3cnccc3N3CCCC4(CCNC4=O)C3)c2)CC1 (stereo not drawn)	Protein mono-ADP-ribosyltransferase PARP16 (PARP16, Homo sapiens, UniProt Q8N5Y8)	SILAC displacement	LS174T-L5 cell lysate	–	23.8 µM
CC(=O)NC1C(O)OC(CN)C(O)[C@@H]1O[C@H](C)C(=O)N[C@@H](C)C(=O)N[C@H](CCC(=O)O)C(N)=O (stereo partly drawn)	Nucleotide-binding oligomerization domain-containing protein 2, LRR domain (NOD2, Homo sapiens, UniProt Q9HC29, W931A)	surface plasmon resonance	–	LRR mutant W931A	0.78 ± 0.133 µM
Cc1cn([C@H]2C[C@H](O)[C@@H](COP(=O)(O)OP(=O)(O)OP(=O)(O)O)O2)c(=O)[nH]c1=O	DNA repair protein REV1, residues 1-746 (REV1, Saccharomyces cerevisiae, UniProt P12689)	substrate, rapid chemical quench	–	pH 7.5, 30 °C, with: primer-template DNA	700 ± 100 µM
CC(=O)N[C@@H]1[C@@H](O)[C@H](O)[C@@H](CO)O[C@H]1O	NOD2 LRR domain	binding, SPR, immobilised ligand	–	LRR domain wild type	0.354 ± 0.04 µM
OC[C@H]1OC(O)[C@H](O)[C@@H](O)[C@@H]1O (stereo partly drawn)	Hexokinase-3 (HK3, Homo sapiens, UniProt P52790)	binding, isothermal titration calorimetry	–	pH 8.0, 25 °C	6.2 ± 0.6 µM
O=C(O)c1ccccc1Sc1ncnc2sc3c(c12)CCC3	GAP50	binding, surface plasmon resonance	–	1:1 binding model	60.2 µM

Compound	target	assay	system	setting	Kd
Nc1nc2c(ncn2[C@@H]2O[C@H](COP(=O)(O)OP(=O)(O)OP(=O)(O)O)[C@@H](O)[C@H]2O)c(=O)[nH]1	GTP-binding protein gtr2, with Gtr1 (gtr2, Schizosaccharomyces pombe, UniProt O74544, F161W)	UV crosslinking titration	–	4 °C	0.068 µM
CCCCCCC/C=C/C(=O)N1C(=O)CC(=O)C1CC(C)C (stereo not drawn)	acetyl-CoA acetyltransferase (Streptococcus macacae, UniProt G5JW77)	–	–	–	2.52 µM
O=C(O)CCc1nc2ccccc2c2nc(Cc3ccccc3)nn12	USP51 ZnF-UBD domain	–	–	–	> 1000 µM
COC(=O)C(C)OC1C(O)C(CO)OC(O)C1NC(C)=O (stereo not drawn)	Nucleotide-binding oligomerization domain-containing protein 2 (NOD2, Homo sapiens, UniProt Q9HC29)	binding, backscattering interferometry	HEK293T cell vesicles	–	0.003 to 0.03 µM
Oc1ccc(Sc2ccc(O)cc2)cc1	Heat shock protein HSP 90-alpha (HSP90AA1, Homo sapiens, UniProt P07900)	binding, fluorescence polarization competition	–	with: geldanamycin-FITC	21.3 ± 6.1 µM
CO[C@H]1O[C@H](COS(=O)(=O)O)[C@@H](O[C@@H]2O[C@@H](C(=O)O)[C@@H](O[C@H]3O[C@H](COS(=O)(=O)O)[C@@H](O[C@@H]4O[C@H](C(=O)O)[C@@H](O[C@H]5O[C@H](COS(=O)(=O)O)[C@@H](O)[C@H](O)[C@H]5NS(=O)(=O)O)[C@H](O)[C@H]4O)[C@H](OS(=O)(=O)O)[C@H]3NS(=O)(=O)O)[C@H](O)[C@H]2OS(=O)(=O)O)[C@H](O)[C@H]1NS(=O)(=O)O	Beta-2-glycoprotein 1, domain V (APOH, Homo sapiens, UniProt P02749, V266L)	isothermal titration calorimetry	25 mM cacodylate buffer	pH 7.2, 298 K, with: 50 mM NaCl	4.4 µM
C[C@H](O)C(=O)O	T156H-R445H zinc sensor protein	binding, fluorescence lifetime	–	with: 100 µM Zn2+	25 ± 9 µM
COc1cc2oc(=O)cc(C)c2cc1CCC(=O)O	USP51 ZnF-UBD domain	–	–	–	> 1000 µM
CS(=O)(=O)c1ccc(-c2cccc(C=C(C#N)C(N)=O)n2)cc1	2-mercaptoethanol	thiol adduct formation, UV-visible titration	PBS	pH 7.4	180 ± 4 µM
N[C@@H](CO)C(=O)O	SAR11_1346 protein (Candidatus Pelagibacter sp.)	binding, direct isothermal titration calorimetry	–	–	0.199 ± 0.097 µM
CCC(C)NCC(O)Cn1c2ccc(Cl)cc2c2cc(Cl)ccc21 (stereo not drawn)	GAP50	binding, surface plasmon resonance	–	1:1 binding model	47.7 µM
O=C(O)CCOc1ccccc1	USP51 ZnF-UBD domain	–	–	–	> 1000 µM
COc1cc(O)c2c(c1)oc(=O)c1c3cc(O)c(O)cc3oc21	Alpha-glucosidase MAL12 (MAL12, Saccharomyces cerevisiae S288c, UniProt P53341)	fluorescence quenching	–	307 K	6.17 µM
O=C1O[C@H]([C@@H](O)CO)C(O)=C1O	Transforming protein RhoA (Rhoa, Mus musculus, UniProt Q9QUI0)	surface plasmon resonance	–	mouse protein	7160 µM
Nc1ncnc2c1ncn2[C@@H]1O[C@H](CO)[C@@H](O)[C@@H]1O	Heat shock cognate 71 kDa protein, nucleotide-binding domain (HSPA8, Homo sapiens, UniProt P11142)	binding, SPR	–	nucleotide-binding domain, residues 1-381	> 1000 µM
Cc1cc2nc3c(=O)[nH]c(=O)nc-3n(C[C@H](O)[C@H](O)[C@H](O)COP(=O)(O)OP(=O)(O)OC[C@H]3O[C@@H](n4cnc5c(N)ncnc54)[C@H](O)[C@@H]3O)c2cc1C	FMR1-interacting protein NUFIP2 (NUFIP2, Homo sapiens, UniProt Q7Z417)	binding, MS pulldown competition	SW-620 cell lysate	–	0.087 µM
CCOc1nc2cccc(C(=O)O)c2n1Cc1ccc(-c2ccccc2-c2nnn[nH]2)cc1	Neutrophil gelatinase-associated lipocalin (LCN2, Homo sapiens, UniProt P80188, C107S)	NMR titration line-shape fit	–	induced fit model	5.2 ± 0.1 µM
CN1CCC(NCc2cccc(-c3ccc(S(=O)(=O)NCc4ccccc4)cc3)c2)CC1	GAP50	binding, surface plasmon resonance	–	1:1 binding model	6.62 µM
O=C(O)CCc1nc2ncccn2n1	USP51 ZnF-UBD domain	–	–	–	> 1000 µM
CCOC(=O)N1CCN(c2ccc(Cl)cc2)CC1	GAP50	binding, surface plasmon resonance	–	1:1 binding model	0.168 µM
O=C(O)CCC(=O)c1ccc2c(c1)CCC(=O)N2	USP51 ZnF-UBD domain	–	–	–	> 1000 µM
c1ccc(Oc2ccc(-c3cc(N4CCOCC4)[nH]n3)cc2)cc1	GAP50	binding, surface plasmon resonance	–	1:1 binding model	76.8 µM
O=C(O)Cn1cnc2ccccc2c1=O	USP51 ZnF-UBD domain	–	–	–	> 1000 µM
NCc1ccc(C(F)(F)F)cc1	Maoa	steady-state isotope effects	–	pH 7.5	284 µM
O=C(O)/C=C/C=C/c1cccc(Oc2cc(Cl)cc(Cl)c2)c1	GAP50	binding, surface plasmon resonance	–	1:1 binding model	3.81 µM

Repeated from above:
Compound	target	assay	system	setting	Kd
CN1CCC(NCc2cccc(-c3ccc(S(=O)(=O)NCc4ccccc4)cc3)c2)CC1	GAP50	binding, surface plasmon resonance	–	1:1 binding model	6.62 µM
NS(=O)(=O)c1ccccc1	Carbonic anhydrase 14 (CA14, Homo sapiens, UniProt Q9ULX7)	thermal shift	–	pH 7.0, 25 °C	3.33 µM
C[C@H](N)C(=O)N[C@H](CCC(=O)O)C(N)=O	NOD2 LRR domain	binding, SPR, immobilised ligand	–	LRR domain wild type	0.428 ± 0.049 µM
CC(C)C[C@H](N)C(=O)O	SAR11_1346 protein (Candidatus Pelagibacter sp.)	binding, competition isothermal titration calorimetry	–	with: serine 5 mM competitor	2.88e-05 µM and 2.23e-05 µM
CCCN1CCN(c2cccc(-c3cnccc3N3CCCC4(CCNC4=O)C3)c2)CC1 (stereo not drawn)	Protein mono-ADP-ribosyltransferase PARP16 (PARP16, Homo sapiens, UniProt Q8N5Y8)	SILAC displacement	LS174T-L5 cell lysate	–	23.8 µM
Cc1cc2nc3c(=O)[nH]c(=O)nc-3n(C[C@H](O)[C@H](O)[C@H](O)COP(=O)(O)OP(=O)(O)OC[C@H]3O[C@@H](n4cnc5c(N)ncnc54)[C@H](O)[C@@H]3O)c2cc1C	FMR1-interacting protein NUFIP2 (NUFIP2, Homo sapiens, UniProt Q7Z417)	binding, MS pulldown competition	SW-620 cell lysate	–	0.087 µM
Cn1cc(CNCC2CCN(c3ncc(C(=O)NO)cn3)CC2)c2ccccc21	HDAC10	inhibitor, competition pulldown	SW620 and MV4-11 lysate	1 h	0.0672 µM
